Published values pooled from the literature.
Compare with care: the assays were run in different laboratories. Values joined by “and” are separate records of one study, mostly repeats; a detail may differ. ± gives the spread as reported.

Cc1cnc(N2CC3(CCOCC3)C2)c(C(=O)Nc2ccc(C(=O)N3CCc4cc(C(=O)Nc5c(C)cccc5F)sc4-c4ccccc43)cc2)c1 gave an inhibition of 48% (measured: IP-10; human RSV infection, nasal wash; dose not given, AUC, ITT-IS population; baseline: placebo).
CCN(Cc1nc2c(N)nc3cc(-c4cc[nH]n4)ccc3c2[nH]1)C(C)=O gave a fold change of 9.1 (Luminex, measured: IL-6; cancer patients, serum; 2000 µg monotherapy, first 24 h; baseline: baseline).
For C[C@H]1C[C@H]2CSC(N)=N[C@@]2(c2nc(NC(=O)c3ccc(OC(F)F)cn3)cs2)CO1, “percent change from baseline” read -69% (measured: Aβ1-40; healthy adults, plasma; 40 mg single dose, 8 h post-dose; baseline: placebo).
O=C(O)/C=C/c1ccc(Cn2ccnc2)cc1 has an APTT of 23.3 s (rat, MCAO/R model, plasma; intravenous, dose not given, 4 h).
For OC(CCN1CCCCC1)(c1ccccc1)C1CC2C=CC1C2 (stereo not shown), “EEG Beta2-power Fz-Cz” read 0.9 µV² (resting-state EEG; healthy elderly humans; oral, 2 mg, eyes closed, LS mean).
With O[C@H]1CCCN[C@@H]1CCCn1cnc2c(Cl)c(Cl)ccc21 the AUC(0-tau) was 92.9 ng·h/mL (ELISA, measured: Pro-C6; healthy human volunteers, serum; intraduodenal, 25 mg twice daily, day 14, multiple ascending dose).
For N#Cc1ccc2c(c1)[C@H]1CCCN(C(=O)c3ccc4[nH]cnc4c3)[C@H]1C2, “systolic blood pressure change” read 1.4 mmHg (human, Phase II trial; oral, 20 mg once daily, day 28, adjusted mean, SE).
CCOCc1nc(O)c(-c2nnc(Cc3ccc(Cl)cn3)o2)c(O)c1-c1c(OC)cccc1OC — result for “cardiac output increase”: 26% (renal hypertensive rat; po, 0.2 mg/kg once daily, peak exposure; baseline: vehicle).
C[C@H](CS)C(=O)N1CCC[C@H]1C(=O)O gave a fibrosis area of 4.36% and 9.77% and 3.9% and 14.6% and 2.6% and 8.88% (mouse, unilateral ureteral obstruction, left kidney (obstructed); dose not given).
For CC(C)NCC(O)c1ccc(O)c(O)c1 (stereo not shown), the sarcomere length was 1.71 µm (ventricular cardiomyocytes, C57BL/6 mouse; dose not given, 0.284 s).
Under “negative activation entropy”, [Cl-].[Cl-].[Pt+2].[Ru+2].c1ccc(-c2nccnc2-c2ccccn2)nc1.c1cnc2c(c1)ccc1cccnc12.c1cnc2c(c1)ccc1cccnc12 is recorded as 194 ± 16 J/(mol·K) (chloride substitution, UV-vis kinetics; aqueous buffer; concentration not given, pH 7.2, second substitution step, together with: L-methionine).
Cn1cc(Nc2nccc(-c3ccc4c(c3)CN(C3COC3)CC[C@H]4NC(=O)c3cn(C(C)(C)C)nn3)n2)cn1 — result for “pathway activation z-score”: 1.63 (measured: Glutathione-mediated Detoxification; splenic B cells, Mus musculus; 30 mg/kg, together with: IgD activation; baseline: vehicle, direction not given).
[Cl-].[Cl-].[Pt+2].[Ru+2].c1ccc(-c2nc3ccccc3nc2-c2ccccn2)nc1.c1cnc2c(c1)ccc1cccnc12.c1cnc2c(c1)ccc1cccnc12: “negative activation entropy” 150 ± 8 J/(mol·K) (chloride substitution, UV-vis kinetics; aqueous buffer; concentration not given, pH 7.2, second substitution step, together with: thiourea).
N#Cc1ccn2c(-c3ccncc3)c(-c3ccc(F)cc3)nc2c1 — result for “log2 fold change”: -0.233 (kinase binding, competitor, MIB/MS competition, measured: RCK2; Candida albicans cell lysate; 100 nM; baseline: DMSO).
Under “difference from placebo”, C[C@H](Oc1ccc(Br)cc1-c1ccon1)C(=O)O is recorded as -1.88% (muscle velocity recovery cycle; human, tibialis anterior muscle; 600 mg once daily, last response peak at 15 Hz, multiple ascending dose).
For COc1cc2cc(-c3ccc(CC(=O)Nc4cc(C(C)(C)C(F)(F)F)no4)cn3)cnc2cc1OC, “progressive disease as best response” read 0% (RECIST v1.1; RET-altered advanced solid tumour patients; oral, 10 mg once daily, phase I).
The EC50 of CC(C)C[C@@H](NC(=O)[C@H](C)NC(=O)CNC(=O)[C@@H](NC=O)C(C)C)C(=O)N[C@@H](C)C(=O)N[C@@H](C(=O)N[C@H](C(=O)N[C@@H](C(=O)N[C@@H](Cc1c[nH]c2ccccc12)C(=O)N[C@H](CC(C)C)C(=O)N[C@@H](Cc1ccc2[nH]ccc2c1)C(=O)N[C@H](CC(C)C)C(=O)N[C@@H](Cc1c[nH]c2ccccc12)C(=O)N[C@H](CC(C)C)C(=O)N[C@@H](Cc1c[nH]c2ccccc12)C(=O)NCCO)C(C)C)C(C)C)C(C)C is reported as 0.0434 ± 0.0121 µM (H+/Na+ transport, pyranine pH-gradient; EYPC/cholesterol LUVs 2:1).
For CN[C@@H]1COc2c(S(=O)(=O)NC(=O)Nc3c4c(cc5c3CCC5)CCC4)cnn2C1, the inhibition was 99.6% (measured: IL-18; human participants, whole blood ex vivo; 300 mg twice daily, multiple doses, 148 h, IL-18, circulating, adjusted for, together with: LPS/ATP; baseline: baseline).
With CC(C)[C@H](C(=O)Nc1ccc(C(=O)NO)cc1)c1ccccc1 the tumour volume was 0.0707 cm3 (volumetric MRI; human, right C1 intradural meningioma; dose not given, day 64).
O=C1CCc2ccc(OCCCCN3CCN(c4cccc(Cl)c4Cl)CC3)cc2N1: “stopping or switching” 18% (patients CYP2D6 IM; 3 months).
CS(=O)(=O)CCNCc1ccc(-c2ccc3ncnc(Nc4ccc(OCc5cccc(F)c5)c(Cl)c4)c3c2)o1 has an ED50 of 106 mg/kg (tumour growth; SW48, mouse, subcutaneous SW48 xenograft; oral, 14 days daily, colon cancer).
The T/C of O=C1N(Cc2ccccc2Cl)c2ccccc2C12NN=C(c1ccccc1)S2 (stereo not shown) is reported as 72% (SK-BR-3 xenograft, mouse; intravenous, 864 mg/kg, subcutaneous xenograft; baseline: vehicle).
C[C@H]1O[C@@H](O[C@H]2CC[C@@]3(C)[C@@H](CC[C@]4(C)[C@@H]3C=C[C@]35OC[C@@]6(CCC(C)(C)C[C@H]63)[C@@H](O)C[C@]54C)[C@]2(C)CO)[C@H](O)[C@@H](O[C@@H]2O[C@H](CO)[C@@H](O)[C@H](O)[C@H]2O)[C@H]1O gave a protein level of 0.307 and 0.374 and 0.656 (Western blot, measured: caspase3; chronic-plus-binge ethanol-fed mice, liver; dose not given, high dose, unit not given; baseline: β-actin).
The conduction velocity of Cc1ccc(C(=O)Nc2ccnc(S(N)(=O)=O)c2)c(N2CCCC(F)(F)CC2)n1 is reported as 102 ± 1.48 % baseline (Macaca mulatta, C-nociceptors; intravenous, 0.6 mg/kg bolus then 0.8 mg/kg/h, 90 min).
COc1nnc2ccc(N3CCC(c4ccc(OCCN5CCN(C)C(=O)[C@H]5C)cc4)CC3)nn12: “time above HEXIM1 threshold” 6.97 h (human patients; 40 mg once daily, 1.5-fold above baseline).
CC#Cc1cncc(-c2ccc3c(c2)[C@@]2(N=C(C)C(N)=N2)[C@]2(CC[C@H](OC)CC2)C3)c1 — result for “time to maximum effect”: 8 h (measured: Aβ40 and Aβ42; Dunkin-Hartley guinea pigs, CSF; oral, dose not given).
C[C@@H](O)CCOC(=O)C[C@@H](C)O gave a metabolite level of -4.59 ± 0.4 µmol/L (measured: C18 acylcarnitine; human, plasma; 60 min, log2-transformed values).
c1ccc(-c2n[nH]cc2-c2ccnc3ccccc23)nc1: “log2 fold change” 1.64 (kinase binding, competitor, MIB/MS competition, measured: TPK2; Candida albicans cell lysate; 10 µM; baseline: DMSO).
CSCCNc1nc(SCCC(F)(F)F)nc2c1ncn2[C@@H]1O[C@H](COP(=O)(O)OP(=O)(O)C(Cl)(Cl)P(=O)(O)O)[C@@H](O)[C@H]1O: “patients with IPA above threshold” 0% (platelet aggregation, light transmittance aggregometry; human, platelet-rich plasma; dose not given, 30 min, IPA above 90 %, together with: TRAP 15 µM; baseline: patients).
For NC(=O)c1cnc2[nH]ccc2c1N[C@@H]1[C@@H]2CC3C[C@H]1C[C@@](O)(C3)C2, the percent change was -0.12% (CD8+ central memory T cells, flow cytometry; Caucasian humans, peripheral blood; 20 mg single dose; baseline: baseline).
The fold change of COc1ccc(-c2cncc(N[C@@H](C)c3cccc(NC(=O)c4cncc(C)c4)c3)n2)cc1OC is reported as 12.7 (measured: rno-miR-381-3p; rat SU5416/hypoxia model, lung; dose not given; baseline: SU5416/hypoxia vehicle).
The plasma C4 of CCCCC1(CCCC)CN(c2ccccc2)c2cc(SC)c(OCC(=O)N[C@@H](C(=O)NCC(=O)O)c3ccccc3)cc2S(=O)(=O)C1 is reported as 25.8 ng/mL (measured: 7α-hydroxy-4-cholesten-3-one; human, plasma; 5 mg once daily, day 1).
O=C(O)c1ccc(-n2cc(CNc3cc(Br)cc(C(F)(F)F)c3)c(-c3ccc(F)c(F)c3)n2)cc1 has a survival of roughly 80% (Caenorhabditis elegans, S. aureus infected; 1 µg/mL, 5 days).
Under “tumour growth inhibition”, C=CCn1c(=O)c2cnc(Nc3ccc(N4CCN(C)CC4)cc3)nc2n1-c1ccc2c(n1)[C@@](O)(CC)CC2 is recorded as 40% (SW-403 xenograft, BALB/c nude mice; oral, 80 mg/kg once daily x 28, day 27; baseline: vehicle).
N#Cc1ccc(C(c2ccc(C#N)cc2)n2cncn2)cc1 has an estradiol concentration of 857 ± 81.8 pg/mL (ELISA; human patients, tumour homogenate; 2.5 mg daily).
Under “total urinary corticosteroid excretion”, N#Cc1ccc2c(c1)[C@H]1CCCN(C(=O)c3ccc4[nH]cnc4c3)[C@H]1C2 is recorded as 188% (T2DM patients with overweight or obesity, urine; oral, 240 mg, day 14, 0-24 h, multiple dosing, adjusted geometric mean; baseline: baseline day -1, -24-0 h).
The sarcomere length of O=C(O)CNC(=O)Cc1ccccc1 is reported as 1.72 µm (ventricular cardiomyocytes, C57BL/6 mouse; dose not given, 0.364 s).
With Cc1oncc1C(=O)Nc1ccc(C(F)(F)F)cc1 the DHO concentration was 15.8 ± 6.05 µM (measured: dihydroorotate; female CD-1 mice, blood; oral, 10 mg/kg daily, 8 h after dose 10, 10-day dosing).
With CC1(C)CCC2(CC1)N[C@@H](C(=O)N[C@@H]1CC[C@@H](C(N)=O)OC1)[C@H](c1ccnc(Cl)c1F)[C@]21C(=O)Nc2cc(Cl)ccc21 the progressive disease was 31.3% (RECIST; patients with solid tumours; dose not given; baseline: patients).
CO[C@H]1CC[C@H](N2C(=O)CNc3ncc(-c4ccc(C(C)(C)O)nc4)nc32)CC1: “pAKT change from baseline” -57.6% (flow cytometry; stimulated monocytes, human, blood; 45 mg single dose, 3 h, mean; baseline: baseline).
For N#Cc1ccc2c(-c3ccncc3)c(-c3ccc(F)cc3)nn2c1, “log2 fold change” read -0.139 (kinase binding, competitor, MIB/MS competition, measured: PKH3; Candida albicans cell lysate; 1 µM; baseline: DMSO).
For O=P(O)(O)C(Cl)(Cl)P(=O)(O)O, the VCAM-1 level was 2.51 MFI (endothelial activation, immunostaining; Mus musculus, subarachnoid haemorrhage model, cortical capillary endothelium; dose not given).
For CC[C@@H]1[C@H](F)C(=O)N[C@@H]1COc1nccc2cc(C(N)=O)c(OC)cc12, the inhibition was -7.2% (ATP-site probe binding, ActivX profiling, measured: PKD1, PKD2; THP-1 cell lysate; 0.01 mM, Lys2 site).
The AUC(0-tau) of CN(C(=O)n1cnc(-c2ccc[n+]([O-])c2)c1)C1CCCCC1 is reported as 134 ng·h/mL (measured: PEA; human, plasma; 5 mg once daily, day 10).
O=C1Nc2cc3[nH]nc(-c4ccncc4)c3cc2CN1Cc1ccccc1: “progressive disease, best response” 67% (RECIST v1.1; human, relapsed or refractory advanced solid tumours; intravenous, 3.6 mg/kg, pooled schedules).
Under “change in level”, COc1nc(-c2cc(C)c(N[C@@H](C)c3cc(F)cc(F)c3)nn2)ccc1-n1cnc(C)c1 is recorded as 94% (measured: Aβ40; rat Sprague-Dawley male, plasma; oral, 50 mg/kg daily for 9 days, 4 h after dose; baseline: vehicle).

Some of these lines once more:
For OC(CCN1CCCCC1)(c1ccccc1)C1CC2C=CC1C2 (stereo not shown), “EEG Beta2-power Fz-Cz” read 0.9 µV² (resting-state EEG; healthy elderly humans; oral, 2 mg, eyes closed, LS mean).
For CN[C@@H]1COc2c(S(=O)(=O)NC(=O)Nc3c4c(cc5c3CCC5)CCC4)cnn2C1, the inhibition was 99.6% (measured: IL-18; human participants, whole blood ex vivo; 300 mg twice daily, multiple doses, 148 h, IL-18, circulating, adjusted for, together with: LPS/ATP; baseline: baseline).
For CC[C@@H]1[C@H](F)C(=O)N[C@@H]1COc1nccc2cc(C(N)=O)c(OC)cc12, the inhibition was -7.2% (ATP-site probe binding, ActivX profiling, measured: PKD1, PKD2; THP-1 cell lysate; 0.01 mM, Lys2 site).
